Results from different studies.
Compare with care: the assays were run in different laboratories. Several values in a cell are separate wells, animals, samples, runs or records. ± gives the spread as reported.

SMILES	cell line	test	system	conditions	how to read	endpoint	value
Cc1cc(Oc2nc(N3CC[C@@H](c4ccncc4)C3)ncc2F)[nH]n1	MHH-ES-1	cell proliferation	bone cancer	–	–	IC50	77.6 µM
CSCC[C@H](NC(=O)CNC(=O)[C@H](CCSC)NC(=O)[C@H](CS)NC(=O)[C@@H](N)CS)C(=O)N[C@@H](CS)C(=O)NCC(=O)N[C@@H](CCCCN)C(=O)O	RAW264.7	Western blot	–	concentration not given, 6 h pretreatment, with: LPS 30 min	–	p-NF-κB/NF-κB ratio	0.17 ± 0.01
COc1ccccc1-c1ccncc1C(=O)Nc1nnc(OCc2ccc(Cl)cc2)s1	RPE-1 BRCA1 WT parental	–	–	1 µM, run 2	baseline: untreated	colony survival	81.6%
CC(C)C[C@@H](/C=C/[C@H](Cc1ccccc1)C(=O)N1CCC[C@H]1C(=O)N[C@H](C(=O)N[C@@H](CCCNC(=O)OCc1ccccc1)C(=O)NC1CC(C)(C)N([O])C(C)(C)C1)C(C)C)NC(=O)OC(C)(C)C	BJeLR	protection from ferroptosis, PrestoBlue	–	24 h, with: erastin 10 µM	–	EC50	0.086 µM
CC(C)C12OC1C1OC13C1(C)CCC4=C(COC4=O)C1CC1OC13C2OC(=O)CCC(=O)OC1OC(CO)C(O)C(O)C1O (stereo not shown)	SK-BR-3	cell growth or viability, XTT	–	47 h	–	IC50	1.3 µM
CC1CCC2C(C)C(OC(=O)CCC(=O)N3CCC(Nc4ccc(S(=O)(=O)NC(=O)c5ccc(N6CCN(CC7=C(c8ccc(Cl)cc8)CC(C)(C)CC7)CC6)cc5Oc5cnc6[nH]ccc6c5)cc4[N+](=O)[O-])CC3)OC3OC4(C)CCC1C32OO4 (stereo not shown)	THP-1	annexin V/PI flow cytometry, refers to: annexin V-/PI+	–	1.6 µM, 24 h	–	necrotic cells	1%
CC(C)(C)C(=O)OCOP(=O)(OCOC(=O)C(C)(C)C)C1CCCN(O)C1=O (stereo not shown)	RXF 393	–	–	–	–	GI50	0.36 µM
CC(C)C[C@H](NC(=O)[C@H](CC(=O)O)NC(=O)CNC(=O)[C@@H](N)CCCNC(=N)N)C(=O)N[C@@H](C)C(=O)N[C@H](C(=O)N[C@@H](CC(C)C)C(=O)N[C@@H](CCCNC(=N)N)C(=O)N[C@@H](CCC(N)=O)C(=O)N[C@@H](CC(C)C)C(=O)N[C@@H](C)C(=O)N[C@@H](CCC(N)=O)C(=O)N[C@@H](CCC(=O)O)C(=O)N[C@@H](CC(=O)O)C(=O)NCC(=O)N[C@H](C(=O)N[C@H](C(=O)NCC(=O)N[C@H](C(=O)N[C@@H](CCCNC(=N)N)C(=O)NCCOCCOCCOCCOCCOCCOCCOCCOCCOCCOCCOCCOCCC(=O)N[C@@H](CS)C(N)=O)C(C)C)C(C)C)C(C)C)[C@@H](C)O	PC-9	phage binding	–	–	baseline: targeting over control phage	selectivity ratio	47 ± 16
CNC(=S)N/N=C/c1ccc(OCc2ccccc2)cc1	IMR-32	–	–	50 µg/mL, 24 h	higher = more activity	catalase activity (OD450)	0.021 a.u.
O=C(O)c1ccc(-c2nc(-c3ccccc3Cl)c3sccn23)cc1	HEL	flow cytometry, refers to: surface CD71	–	0.01 mM	higher = more expression	mean fluorescence intensity	43900 a.u.
N=C(N)NCCC[C@H](NC(=O)CNC(=O)[C@@H](N)Cc1ccc(O)cc1)C(=O)N[C@@H](CCCCN)C(=O)N[C@@H](CCCCN)C(=O)N[C@@H](CCCNC(=N)N)C(=O)N[C@@H](CCCNC(=N)N)C(=O)N[C@@H](CCC(N)=O)C(=O)N[C@@H](CCCNC(=N)N)C(=O)N[C@@H](CCCNC(=N)N)C(=O)N[C@@H](CCCNC(=N)N)C(=O)N[C@@H](CS)C(N)=O	human red blood cells	–	–	pH 7.4	baseline: Triton X-100	EC50	> 100 µM
CC(=O)Oc1ccccc1C(=O)[Se]CC(=O)Nc1cccc(C(F)(F)F)c1	NCI60 melanoma subpanel	cytotoxicity, inhibitor	–	five-dose	–	CC50	17.9 µM
CC(C)CC(O)(CC(C)C)c1cn(C(=O)N2CCCC2)nn1	mouse T-cells	SILAC proteomics, refers to: Larp1	–	1 nM, 6 h, single peptides, unit not given	baseline: DMSO	protein level	1.24 and 1.08 and 0.94
O=C(C[Se]C(=O)c1cccs1)Nc1cccc(C(F)(F)F)c1	NCI60 leukaemia subpanel	NCI60 five-dose screen	–	–	–	CC50	11 µM
CSCC[C@H](NC(=O)[C@@H](NC(=O)[C@H](CCC(N)=O)NC(=O)[C@H](CO)NC(=O)[C@@H](N)C(C)C)[C@@H](C)O)C(=O)N[C@@H](CCCNC(=N)N)C(=O)N[C@@H](CCC(N)=O)C(=O)N[C@H](C(=O)N[C@@H](C)C(=O)N[C@H](C(=O)N1CCC[C@H]1C(=O)N[C@@H](CC(C)C)C(=O)N[C@@H](CC(C)C)C(=O)N[C@@H](Cc1c[nH]c2ccccc12)C(=O)N[C@@H](Cc1ccccc1)C(=O)N[C@@H](Cc1c[nH]c2ccccc12)C(=O)N[C@H](C(=O)NCC(=O)N[C@@H](CO)C(=O)N[C@@H](CC(C)C)C(=O)NCCOCCOCCOCCOCCOCCOCCOCCOCCOCCOCCOCCOCCC(=O)N[C@@H](CS)C(N)=O)[C@@H](C)O)C(C)C)[C@@H](C)O	H1299 lung large cell carcinoma	cell binding, phage binding, refers to: output/input phage	–	10 min, 37 °C	baseline: control phage	selectivity ratio	190 ± 20
O=C(C[Se]C(=O)c1ccccc1)Nc1cccc(C(F)(F)F)c1	NCI60 melanoma subpanel	cell growth, inhibitor	–	five-dose	–	GI50	2.22 µM
CC(C)[C@H](NC(=O)[C@H](CCCNC(=N)N)NC(=O)[C@@H]1CCCN1C(=O)[C@@H](NC(=O)[C@H](C)NC(=O)[C@H](Cc1ccc(O)cc1)NC(=O)[C@H](CCC(N)=O)NC(=O)[C@H](CCCCN)NC(=O)[C@H](CCCNC(=N)N)NC(=O)[C@@H]1CCCN1C(=O)[C@H](CCC(=O)O)NC(=O)[C@@H](NC(=O)[C@H](C)N)[C@@H](C)O)[C@@H](C)O)C(=O)N[C@@H](Cc1ccccc1)C(=O)N[C@@H](Cc1c[nH]c2ccccc12)C(=O)N[C@H](C(=O)N[C@@H](CC(=O)O)C(=O)N[C@@H](C)C(=O)N1CCC[C@H]1C(=O)NCC(=O)NCCOCCOCCOCCOCCOCCOCCOCCOCCOCCOCCOCCOCCC(=O)N[C@@H](CS)C(N)=O)[C@@H](C)O	H1299 lung large cell carcinoma	cell binding, phage binding, refers to: output/input phage	–	10 min, 37 °C	baseline: control phage	selectivity ratio	170 ± 75
O=C(C[Se]C(=O)c1ccc2ccccc2c1)Nc1cccc(C(F)(F)F)c1	NCI60 leukaemia subpanel	NCI60 five-dose screen	–	–	–	CC50	10.6 µM
NC(=O)CCCCC=C1C(=O)OC1CCc1ccccc1 (stereo not shown)	mouse peritoneal macrophages ABHD16A knock-out	cellular and secreted lipids	–	1 µM, 4 h, basal and LPS-stimulated	–	lyso-PS level	no effect
CC[C@H](C)[C@H](NC(=O)[C@H](C)NC(=O)CNC(=O)[C@H](Cc1ccccc1)NC(=O)[C@H](CC(N)=O)NC(=O)[C@H](CC(N)=O)NC(=O)[C@H](CO[C@@H]1O[C@H](CO)[C@@H](O)[C@H](O)[C@H]1NC(C)=O)NC(=O)[C@H](CO)NC(=O)[C@H](Cc1c[nH]cn1)NC(=O)[C@@H](NC(=O)[C@H](CC(C)C)NC(=O)[C@H](Cc1ccccc1)NC(=O)[C@H](CC(N)=O)NC(=O)[C@H](C)NC(=O)[C@@H](N)CC(C)C)C(C)C)C(=O)N[C@@H](CC(C)C)C(N)=O	INS-1	MTT	–	2 equivalents to hIAPP, 24 h, with: hIAPP 1 µM	–	viability	68.6%
N[C@H](C(=O)N1CCCC1)C1CCN(c2nccc3c(-c4ncc(Cl)cc4Cl)cccc23)CC1	human neutrophils	protein citrullination, inhibitor, flow cytometry, refers to: citrullinated histone H3	–	1 µM, with: ionomycin	–	inhibition	61.3% and 57.4% and 45.3% and 51.5%
CC(=O)NCSC[C@H](NC(=O)[C@@H]1CCCN1C(=O)[C@H](C)NC(=O)[C@@H](NC(=O)CNC(=O)[C@@H](NC(=O)[C@H](Cc1c[nH]c2ccccc12)NC(=O)[C@H](C)NC(=O)CNC(=O)[C@H](CO)NC(=O)[C@H](C)NC(=O)[C@@H]1CCCN1C(=O)[C@H](Cc1c[nH]c2ccccc12)NC(=O)[C@H](C)NC(=O)[C@H](C)NC(=O)[C@@H](N)Cc1ccc(O)cc1)[C@@H](C)O)[C@@H](C)O)C(=O)N[C@@H](CO)C(=O)N[C@@H](C)C(=O)NCC(=O)N[C@H](C(=O)NCCOCCOCCOCCOCCOCCOCCOCCOCCOCCOCCOCCOCCC(=O)N[C@@H](CS)C(N)=O)[C@@H](C)O	PC-9	phage binding	–	–	baseline: targeting over control phage	selectivity ratio	5.8 ± 2.2
NC(=S)N/N=C/c1ccc(OCc2ccccc2)cc1	IMR-32	–	–	200 µg/mL, 24 h	higher = more activity	catalase activity (OD450)	0.045 a.u.
O=C(C[Se]C(=O)c1cccnc1Nc1cccc(C(F)(F)F)c1)Nc1cccc(C(F)(F)F)c1	NCI60 melanoma subpanel	cytotoxicity, inhibitor	–	five-dose	–	CC50	6.85 µM
CCCCCCCCCC(=O)N[C@@H](CCCNC(=N)N)C(=O)N[C@@H](Cc1c[nH]c2ccccc12)C(=O)N[C@@H](CCCCN)C(=O)N[C@H](C(=O)N[C@@H](Cc1ccccc1)C(=O)N[C@@H](CCCCN)C(=O)N[C@@H](CCCCN)C(=O)N[C@H](C(=O)N[C@@H](CCC(=O)O)C(=O)N[C@@H](CCCCN)C(=O)N[C@H](C(=O)NCC(=O)N[C@@H](CCC(N)=O)C(=O)N[C@@H](CC(N)=O)C(=O)N[C@H](C(=O)N[C@@H](CCCNC(=N)N)C(=O)N[C@@H](CC(=O)O)C(=O)NCC(=O)N[C@H](C(=O)N[C@H](C(=O)N[C@@H](CCCCN)C(=O)N[C@@H](C)C(=O)NCC(=O)N1CCC[C@H]1C(=O)N[C@@H](C)C(=O)N[C@H](C(=O)N[C@@H](C)C(=O)N[C@H](C(=O)N[C@H](C(=O)NCC(=O)N[C@@H](CCC(N)=O)C(=O)N[C@@H](C)C(=O)N[C@@H](C)C(=O)N[C@H](C(=O)N[C@H](C(N)=O)[C@@H](C)CC)[C@@H](C)O)C(C)C)C(C)C)C(C)C)C(C)C)[C@@H](C)CC)[C@@H](C)CC)C(C)C)[C@@H](C)CC)[C@@H](C)CC	MX1	trypan blue exclusion	–	6 µM, 24 h	–	dead cells	60%

For quick reference, copied from above:
SMILES	cell line	test	system	conditions	how to read	endpoint	value
CC(C)C12OC1C1OC13C1(C)CCC4=C(COC4=O)C1CC1OC13C2OC(=O)CCC(=O)OC1OC(CO)C(O)C(O)C1O (stereo not shown)	SK-BR-3	cell growth or viability, XTT	–	47 h	–	IC50	1.3 µM
O=C(C[Se]C(=O)c1ccc2ccccc2c1)Nc1cccc(C(F)(F)F)c1	NCI60 leukaemia subpanel	NCI60 five-dose screen	–	–	–	CC50	10.6 µM
N[C@H](C(=O)N1CCCC1)C1CCN(c2nccc3c(-c4ncc(Cl)cc4Cl)cccc23)CC1	human neutrophils	protein citrullination, inhibitor, flow cytometry, refers to: citrullinated histone H3	–	1 µM, with: ionomycin	–	inhibition	61.3% and 57.4% and 45.3% and 51.5%
CC(=O)Oc1ccccc1C(=O)[Se]CC(=O)Nc1cccc(C(F)(F)F)c1	NCI60 melanoma subpanel	cytotoxicity, inhibitor	–	five-dose	–	CC50	17.9 µM
